{"data": "Experimental data from different studies", "organism": "Klebsiella pneumoniae", "note": "Compare with care: the assays were run in different laboratories. ± gives the spread as reported."}
{"SMILES": "CCCCCCCCCCCCCc1cc(O)cc(O)c1", "effect on": "microbial growth", "technique": "broth dilution", "strain": "ATCC10031", "MIC": "> 64 µg/mL"}
{"SMILES": "Oc1cc(C(F)(F)F)ccc1-c1nc2c(C(F)(F)F)cc(C(F)(F)F)cc2[nH]1", "strain": "B9", "MIC": "25 µM"}
{"SMILES": "CC(C)C[C@H](NC(=O)[C@H](CC(N)=O)NC(=O)[C@H](CCCNC(=N)N)NC(=O)[C@@H](CC(C)C)NC(=O)[C@H](Cc1ccc2ccccc2c1)NC(=O)[C@H](CC(=O)O)NC(=O)[C@H](CCCCN)NC(=O)[C@@H](CC(C)C)NC(=O)[C@H](CCCNC(=N)N)NC(=O)[C@H](CCC(N)=O)NC(=O)[C@@H](NC(=O)[C@@H](CC(C)C)NC(=O)[C@H](CCCNC(=N)N)NC(=O)[C@H](CCCCN)NC(=O)[C@H](Cc1ccc(C(F)(F)F)cc1)NC(=O)CN)C(C)C)C(=O)N[C@H](C(N)=O)C(C)C", "technique": "broth microdilution", "strain": "ATCC 13883", "MIC": "12.5 µM"}
{"SMILES": "C[C@H]1COc2c(N3CCN(C)CC3)c(F)cc3c(=O)c(C(=O)N[C@@H](CCCNC(=N)N)C(=O)N[C@@H](Cc4ccc(-c5ccccc5)cc4)C(=O)N[C@@H](CCCNC(=N)N)C(=O)N[C@@H](Cc4ccc(-c5ccccc5)cc4)C(=O)N[C@@H](CCCNC(=N)N)C(N)=O)cn1c23", "technique": "broth microdilution", "strain": "ATCC 2814", "MIC": "20 µM"}
{"SMILES": "Oc1c(Br)ccc2cccnc12", "effect on": "microbial growth", "technique": "agar dilution", "strain": "ATCC700603", "MIC": "71.4 µM"}
{"SMILES": "CC(C)C[C@H](NC(=O)[C@H](CC(N)=O)NC(=O)[C@H](CCCNC(=N)N)NC(=O)[C@@H](CC(C)C)NC(=O)[C@H](Cc1ccccc1)NC(=O)[C@H](CC(=O)O)NC(=O)[C@H](CCCCN)NC(=O)[C@@H](CC(C)C)NC(=O)[C@H](CCCNC(=N)N)NC(=O)[C@H](CCC(N)=O)NC(=O)[C@@H](NC(=O)[C@@H](CC(C)C)NC(=O)[C@H](CCCNC(=N)N)NC(=O)[C@H](CCCCN)NC(=O)[C@H](Cc1ccccc1)NC(=O)CN)C(C)C)C(=O)N[C@H](C(N)=O)C(C)C", "technique": "broth microdilution", "strain": "ATCC 13883", "MIC": "> 100 µM"}
{"SMILES": "Cc1[nH]c(=O)c(CNC(=O)c2ccc(C(F)(F)F)nc2)c2c1CCCC2", "effect on": "microbial growth", "technique": "agar dilution", "setting": "clinical isolate", "MIC": "> 128 µg/mL"}
{"SMILES": "CC[P+](CC)(CC)[Au-][S][C@@H]1O[C@H](COC(C)=O)[C@@H](OC(C)=O)[C@H](OC(C)=O)[C@H]1NC(=O)C(Cl)(Cl)Cl", "strain": "ATCC 700603", "MIC": "> 328 µM"}
{"SMILES": "CCCCCCCCCCCCC[C@@H](O)Cc1cc(O)cc(O)c1", "effect on": "microbial growth", "technique": "broth dilution", "strain": "ATCC10031", "MIC": "> 64 µg/mL"}
{"SMILES": "CC[P+](CC)(CC)[Au-][S+](C[C@H]1O[C@H](O[C@H]2O[C@H](COC(C)=O)[C@@H](OC(C)=O)[C@H](OC(C)=O)[C@H]2OC(C)=O)[C@H](OC(C)=O)[C@@H](OC(C)=O)[C@@H]1OC(C)=O)[Au-][P+](CC)(CC)CC.[Cl-]", "strain": "ATCC 700603", "MIC": "> 194 µM"}
{"SMILES": "CCOC(=O)c1ccc2c(c1)n(CC)[c]([Au-]([Cl])([Cl])[Cl])[n+]2CC", "technique": "broth dilution", "strain": "DSM 11678", "time": "20 h", "temperature": "37 °C", "MIC": "29.1 µM"}
{"SMILES": "c1ccc(CN2CCOCCOCCN(CCCCCCCCCCCCCCN3CCOCCOCCN(CCCCCCCCCCCCCCN4CCOCCOCCN(Cc5ccccc5)CCOCCOCC4)CCOCCOCC3)CCOCCOCC2)cc1", "strain": "ESBL, fluoroquinolone-resistant", "MIC": "12 µM"}
{"SMILES": "CCCS[C@H]1[C@H](O)[C@@H](N)[C@@H](O[C@H]2[C@H](O[C@@H]3O[C@H](CO)[C@@H](O[C@H]4O[C@@H](CN)[C@@H](O)[C@H](O)[C@H]4N)[C@H]3O)[C@@H](O)[C@H](N)C[C@@H]2N)O[C@@H]1CO", "strain": "AG215", "MIC": "2 to 4 µg/mL"}
{"SMILES": "CC(C)C[C@@H](NC(=O)[C@@H](CCCCN)NC(=O)[C@@H](CCCCNC(=O)[C@@H](CC(C)C)NC(=O)[C@@H](CCCCN)NC(=O)[C@@H](CCCCNC(=O)[C@@H](CC(C)C)NC(=O)[C@@H](CCCCN)NC(=O)[C@@H](CCCCNC(=O)[C@@H](CC(C)C)NC(=O)[C@H](N)CCCCN)NC(=O)[C@@H](CC(C)C)NC(=O)[C@H](N)CCCCN)NC(=O)[C@@H](CC(C)C)NC(=O)[C@@H](CCCCN)NC(=O)[C@@H](CCCCNC(=O)[C@@H](CC(C)C)NC(=O)[C@H](N)CCCCN)NC(=O)[C@@H](CC(C)C)NC(=O)[C@H](N)CCCCN)NC(=O)[C@@H](CC(C)C)NC(=O)[C@@H](CCCCN)NC(=O)[C@@H](CCCCNC(=O)[C@@H](CC(C)C)NC(=O)[C@@H](CCCCN)NC(=O)[C@@H](CCCCNC(=O)[C@@H](CC(C)C)NC(=O)[C@H](N)CCCCN)NC(=O)[C@@H](CC(C)C)NC(=O)[C@H](N)CCCCN)NC(=O)[C@@H](CC(C)C)NC(=O)[C@@H](CCCCN)NC(=O)[C@@H](CCCCNC(=O)[C@@H](CC(C)C)NC(=O)[C@H](N)CCCCN)NC(=O)[C@@H](CC(C)C)NC(=O)[C@H](N)CCCCN)C(N)=O", "technique": "broth microdilution", "strain": "NCTC 418", "temperature": "37 °C", "MIC": "32 µg/mL"}
{"SMILES": "COc1c(NC(=O)c2ccc(NC(=O)c3ccc(NC(=O)[C@H](CC#N)NC(=O)c4ccc(NC(=O)/C(C)=C/c5ccc(O)cc5)cc4)cc3)c(OC)c2O)ccc(C(=O)O)c1O", "effect on": "microbial growth", "strain": "DSM30104", "MIC": "> 64 µg/mL"}
{"SMILES": "CC(=O)N1CCc2cc(S(=O)(=O)N3CCN(c4cncc(C(F)(F)F)c4)CC3)ccc21", "technique": "broth microdilution", "strain": "10031", "time": "22 h", "MIC": "> 64 µg/mL"}
{"SMILES": "CC(C)C(O)C(NC(=O)[C@H](Cc1ccc(O)cc1)NC(=O)C(Cc1ccc(O)c(Cl)c1)[N+](C)(C)C)C(=O)N[C@@H](C)C(=O)O (stereo partly drawn)", "strain": "ATCC 27736", "MIC": "> 100 µM"}
{"SMILES": "NC[C@@H]1O[C@H](O[C@H]2[C@@H](O)[C@H](O[C@@H]3[C@@H](O)[C@H](N)C[C@H](N)[C@H]3O[C@H]3O[C@H](CO)[C@@H](CCO)[C@H](O)[C@H]3N)O[C@@H]2CO)[C@H](N)[C@@H](O)[C@@H]1O", "strain": "AG215", "MIC": "2 to 4 µg/mL"}
{"SMILES": "COc1ccc(-c2ccn(CC[C@](C)(C(=O)NO)S(C)(=O)=O)c(=O)c2)c(F)c1", "effect on": "microbial growth", "MIC": "1 µg/mL"}
{"SMILES": "CC(C)C[C@H](NC(=O)[C@H](CC(N)=O)NC(=O)[C@H](CCCNC(=N)N)NC(=O)[C@@H](CC(C)C)NC(=O)[C@H](Cc1ccccc1)NC(=O)[C@H](CC(=O)O)NC(=O)[C@H](CCCCN)NC(=O)[C@@H](CC(C)C)NC(=O)[C@H](CCCNC(=N)N)NC(=O)[C@H](CCC(N)=O)NC(=O)[C@@H](NC(=O)[C@@H](CC(C)C)NC(=O)[C@H](CCCNC(=N)N)NC(=O)[C@H](CCCCN)NC(=O)[C@H](Cc1ccc(C(F)(F)F)cc1)NC(=O)CN)C(C)C)C(=O)N[C@H](C(N)=O)C(C)C", "technique": "broth microdilution", "strain": "ATCC 13883", "MIC": "50 µM"}
{"SMILES": "CCn1cc[n+](CC)[c]1[Au-][Cl]", "technique": "broth dilution", "strain": "DSM 11678", "time": "20 h", "temperature": "37 °C", "MIC": "18.7 ± 9.2 µM"}
{"note": "For quick reference, copied from above:"}
{"SMILES": "CCCCCCCCCCCCC[C@@H](O)Cc1cc(O)cc(O)c1", "effect on": "microbial growth", "technique": "broth dilution", "strain": "ATCC10031", "MIC": "> 64 µg/mL"}
{"SMILES": "CC[P+](CC)(CC)[Au-][S+](C[C@H]1O[C@H](O[C@H]2O[C@H](COC(C)=O)[C@@H](OC(C)=O)[C@H](OC(C)=O)[C@H]2OC(C)=O)[C@H](OC(C)=O)[C@@H](OC(C)=O)[C@@H]1OC(C)=O)[Au-][P+](CC)(CC)CC.[Cl-]", "strain": "ATCC 700603", "MIC": "> 194 µM"}
{"SMILES": "CCOC(=O)c1ccc2c(c1)n(CC)[c]([Au-]([Cl])([Cl])[Cl])[n+]2CC", "technique": "broth dilution", "strain": "DSM 11678", "time": "20 h", "temperature": "37 °C", "MIC": "29.1 µM"}
